{"data": "Published values collected from several papers", "fur full length assumed": "fur full length assumed (Acidithiobacillus ferrooxidans, UniProt B7J425)", "B1": "UGT1A9 (Homo sapiens, UniProt O60656); chain GKLLVVPMDGSHWFTMRSVVEKLILRGHEVVVVMPEVSWQLGRSLNCTVKTYSTSYTLEDLDREFKAFAHAQWKAQVRSIYSLLMGSYNDIFDLFFSNCRSLFKDKKLVEYLKESSFDAVFLDPFDNCGLIVAKYFSLPSVVFARGILCHYLEEGAQCPAPLSYVPRILLGFSDAMTFKERVRNHIMHLEEHLLCHRFFKNALEIASEILQTPVTEYDLYSHTSIWLLRTDFVLDYPKPVMPNMIFIGGINCHQGKPLPMEFEAYINASGEHGIVVFSLGSMVSEIPEKKAMAIADALGKIPQTVLWRYTGTRPSNLANNTILVKWLPQNDLLGHPMTRAFITHAGSHGVYESICNGVPMVMMPLFGDQMDNAKRMETKGAGVTLNVLEMTSEDLENALKAVINDKSYKENIMRLSSLHKDRPVEPLDLAVFWVEFVMRHKGAPHLRPAAHDLTWYQYHSLDVIGFLLAVVLTVAFITFKCCAYGYRKCLGKKGRVKKAHKSKTH", "note": "Protocols differ between the studies behind these lines.", "UniProt Q9N4I4, sequence (whole entry, unmodified, looked up)": "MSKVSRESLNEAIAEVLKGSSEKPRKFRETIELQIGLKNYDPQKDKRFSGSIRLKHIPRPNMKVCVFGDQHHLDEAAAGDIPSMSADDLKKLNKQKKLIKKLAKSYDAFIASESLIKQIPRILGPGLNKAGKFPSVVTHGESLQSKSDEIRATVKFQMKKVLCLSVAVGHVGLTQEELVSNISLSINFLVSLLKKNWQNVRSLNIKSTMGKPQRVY", "UniProt P35222, sequence (whole entry, looked up)": "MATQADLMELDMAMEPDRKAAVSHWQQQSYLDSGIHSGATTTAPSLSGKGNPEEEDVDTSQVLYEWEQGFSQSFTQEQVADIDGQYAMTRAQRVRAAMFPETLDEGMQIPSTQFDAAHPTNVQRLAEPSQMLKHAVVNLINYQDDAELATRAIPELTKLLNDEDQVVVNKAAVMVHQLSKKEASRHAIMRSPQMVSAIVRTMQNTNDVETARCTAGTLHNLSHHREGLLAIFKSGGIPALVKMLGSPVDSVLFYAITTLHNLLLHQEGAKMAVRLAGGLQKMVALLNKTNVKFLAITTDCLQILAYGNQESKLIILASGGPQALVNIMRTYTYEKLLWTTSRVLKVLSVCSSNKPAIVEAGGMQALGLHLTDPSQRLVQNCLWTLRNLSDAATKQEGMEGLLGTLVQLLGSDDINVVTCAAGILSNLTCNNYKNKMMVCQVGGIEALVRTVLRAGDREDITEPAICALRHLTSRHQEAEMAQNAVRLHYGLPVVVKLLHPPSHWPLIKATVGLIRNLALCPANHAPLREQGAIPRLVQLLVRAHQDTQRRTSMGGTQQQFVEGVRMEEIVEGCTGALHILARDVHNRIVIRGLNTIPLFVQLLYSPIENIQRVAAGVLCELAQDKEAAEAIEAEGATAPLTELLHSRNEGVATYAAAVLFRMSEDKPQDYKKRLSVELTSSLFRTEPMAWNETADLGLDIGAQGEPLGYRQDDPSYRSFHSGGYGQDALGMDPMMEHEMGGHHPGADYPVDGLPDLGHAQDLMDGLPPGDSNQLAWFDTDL", "UniProt P75989, sequence (whole entry, looked up)": "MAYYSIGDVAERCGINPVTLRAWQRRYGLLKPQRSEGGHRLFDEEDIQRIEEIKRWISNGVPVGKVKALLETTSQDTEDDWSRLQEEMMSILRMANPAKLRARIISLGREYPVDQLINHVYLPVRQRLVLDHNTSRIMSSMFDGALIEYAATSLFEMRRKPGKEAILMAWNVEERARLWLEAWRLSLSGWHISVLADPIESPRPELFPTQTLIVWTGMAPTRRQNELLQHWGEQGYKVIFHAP", "UniProt F4JVI3, sequence (whole entry, looked up)": "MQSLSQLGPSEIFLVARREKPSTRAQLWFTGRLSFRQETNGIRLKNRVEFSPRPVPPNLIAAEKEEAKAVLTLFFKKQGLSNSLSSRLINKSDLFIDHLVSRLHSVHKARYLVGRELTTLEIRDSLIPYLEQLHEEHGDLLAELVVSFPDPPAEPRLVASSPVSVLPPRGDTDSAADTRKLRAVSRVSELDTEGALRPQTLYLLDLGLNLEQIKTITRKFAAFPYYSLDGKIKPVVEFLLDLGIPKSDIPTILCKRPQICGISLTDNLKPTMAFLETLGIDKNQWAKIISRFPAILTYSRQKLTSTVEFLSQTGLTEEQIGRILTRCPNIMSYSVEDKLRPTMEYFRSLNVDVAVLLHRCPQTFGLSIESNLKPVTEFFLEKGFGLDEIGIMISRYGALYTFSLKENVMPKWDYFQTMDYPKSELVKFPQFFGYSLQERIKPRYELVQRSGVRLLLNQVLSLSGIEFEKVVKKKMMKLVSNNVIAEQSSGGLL"}
{"Substance": "GCAGACCTTGTGGCAACAATTTCTACAAAACACTTGATACTGTATGAGCATACAGTATAATTGCTTCAACAGAACATATTGACTATCC (dsDNA)", "target or system": "lexA 2-202 (Escherichia coli, UniProt P0A7C2)", "test": "SPR", "test system": "double-stranded DNA, one strand shown", "endpoint": "binding", "result": "binds"}
{"Substance": "GGGAAGUCUAAUGAUCAUAUUUAUUUAUUUAUAUGAACCAUGUCUAUUAAUUUAAUUAUUUAAUAAUAUUUAUAUUAAACUCCUUAUGUUACUUAACAUCUUCUGUAACAGAAGUCAGUACUCCUGUUGCGGAGAAAGGAGUCAUACUUGUGAUCUAGACU (ssRNA)", "target or system": "CTNNB1 full length assumed (Homo sapiens, UniProt P35222)", "test": "EMSA", "endpoint": "binding", "result": "binds"}
{"Substance": "TGCTGCCTTGCGGTATGGCCATCATGGTTTCCTGCCGAAACTGGACCTTATGACAGGATATACCCACAATATGACATTATCATGAAACTAAAATGACAATTTTATGACAAAAGCCCAGCGACATATGTACCGCAATACACAGGATTTGCGGAGACCGCAGTGGTCTCCGCTACTCCAACCAGGCATGGAAGATCAGTGAATTACTGAAGTG (dsDNA)", "target or system": "fur full length assumed", "test": "EMSA", "test system": "double-stranded DNA, one strand shown", "conditions": "supershift, added: Mn2+ 0.1 mM", "endpoint": "binding", "result": "binds"}
{"Substance": "GGGAGAGAAGGACAAGCGUUUCAGCGGAUCCAUCAGGUAGCUACGACCUGUGAAAACAGGGAGUUGGGACUUUCAAAGCCUAACGGACCCCCACCCAGGGUCUUAAAUUUUUGGGGAGGCAAUUAUUGCCGCUUUGAAAUAAUGAUACGAGCUGGUAUAAUGUAACCAAUCGUGUCAUUUGGAUUUAUUUCUAUUGUUCUAUUUUCCAGACUGAAGCACAUUCCACGCCCAAACAUGAAGG (ssRNA (Caenorhabditis elegans); 39 nt, deletion)", "target or system": "rpl-10a 1-216 (Caenorhabditis elegans, UniProt Q9N4I4)", "test": "UV crosslinking", "endpoint": "binding", "result": "binds"}
{"Substance": "B1 (UGT1A9)", "target or system": "COc1ccc(-c2oc3cc(O)cc(O)c3c(=O)c2OC)cc1OCc1ccccc1", "test": "steady-state kinetics", "conditions": "pH 7.4, 37 °C", "endpoint": "Vmax/Km", "result": "1660 µL/min/mg"}
{"Substance": "GTAGACTCTAAAAATACCCTTGGTACTTTATTGACGATCTCACAAAGATGCAATCTCAGTGAATTTTAATTTACTTATTCATCTTTTACAGAATCGATTC (dsDNA)", "target or system": "MTERF5 44-493 (Arabidopsis thaliana, UniProt F4JVI3)", "test": "EMSA", "test system": "double-stranded DNA, one strand shown", "endpoint": "binding", "result": "binds"}
{"Substance": "CCTACTTAAGTAGGGAAGGTGCACAATGTACATCTTCTTTTAATTTCCCGGTATGAGATTTTATATTCACAGTATGAATATTTTATGTAATAAAATTCATGGTAATTATTATAACTAAAAGTTTCTTTAATAATAAAACGAATAACTTGCAGATTTGAAATGCAT (dsDNA (Escherichia coli); blunt)", "target or system": "leuO fragment S120D (Escherichia coli)", "test": "DNase I footprinting", "test system": "double-stranded DNA, one strand shown", "endpoint": "binding", "result": "binds"}
{"Substance": "GTGTTTCACGGGCTCTACTCCTGTGGTTTGCGAAATATTCAATGGAATATACTGGTAACTATTTTTGGGTGTCAATAGATTTGTTAAGCTGGTCATATCCAGATATGACATGAATTTGGCATCTTTTTTGCTACATCTTCCACGCGGCCCTATTGCCCACTTATTTGTTCGTTTTATGACAATAATGTGTACTTATTGACATCTAGGGAGAGGCTTTTTGAAACTGCG (dsDNA)", "target or system": "fur full length assumed", "test": "EMSA", "test system": "double-stranded DNA, one strand shown", "conditions": "supershift, added: Mn2+ 0.1 mM", "endpoint": "binding", "result": "binds"}
{"Substance": "GTATAGATTGTCAGTTAAATGATGCAATATGTTTTATCATAACACATTGTTTTATATGCATTAGCACTAATTGCAAAAAATTAATTTATCATTCTGTACACATATTTCGTACAAGTTTGCTATTGTTACTTCACTTAACATTGATTAACATTTTTAACAGAGGCGTAGCATGCATC (dsDNA)", "target or system": "bluR 1-243 (Escherichia coli, UniProt P75989)", "test": "DNase I footprinting", "test system": "double-stranded DNA, one strand shown", "conditions": "0-3.94 µM", "endpoint": "binding", "result": "binds"}
{"note": "For quick reference, copied from above:"}
{"Substance": "GGGAGAGAAGGACAAGCGUUUCAGCGGAUCCAUCAGGUAGCUACGACCUGUGAAAACAGGGAGUUGGGACUUUCAAAGCCUAACGGACCCCCACCCAGGGUCUUAAAUUUUUGGGGAGGCAAUUAUUGCCGCUUUGAAAUAAUGAUACGAGCUGGUAUAAUGUAACCAAUCGUGUCAUUUGGAUUUAUUUCUAUUGUUCUAUUUUCCAGACUGAAGCACAUUCCACGCCCAAACAUGAAGG (ssRNA (Caenorhabditis elegans); 39 nt, deletion)", "target or system": "rpl-10a 1-216 (Caenorhabditis elegans, UniProt Q9N4I4)", "test": "UV crosslinking", "endpoint": "binding", "result": "binds"}
